# Measured values collected from several papers.
# Protocols differ between the studies behind these lines. Values joined by “and” are separate records of one study, mostly repeats; a detail may differ.
# folP: Dihydropteroate synthase (folP, Bacteria, UniProt P0AC13)
# UniProt P0AC13, sequence (whole entry, looked up): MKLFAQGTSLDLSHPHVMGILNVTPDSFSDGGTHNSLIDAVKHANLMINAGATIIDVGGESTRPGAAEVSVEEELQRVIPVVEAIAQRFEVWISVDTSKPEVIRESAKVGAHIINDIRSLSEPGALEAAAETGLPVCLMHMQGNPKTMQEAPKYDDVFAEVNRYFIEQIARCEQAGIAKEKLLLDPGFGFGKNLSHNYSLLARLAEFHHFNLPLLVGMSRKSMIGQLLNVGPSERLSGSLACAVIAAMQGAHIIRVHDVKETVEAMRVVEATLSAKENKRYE
# CSNK1A1/CRBN: Cereblon/Casein kinase I alpha (CSNK1A1/CRBN, Homo sapiens, UniProt P48729+Q96SW2)
# UniProt P48729, sequence (whole entry, looked up): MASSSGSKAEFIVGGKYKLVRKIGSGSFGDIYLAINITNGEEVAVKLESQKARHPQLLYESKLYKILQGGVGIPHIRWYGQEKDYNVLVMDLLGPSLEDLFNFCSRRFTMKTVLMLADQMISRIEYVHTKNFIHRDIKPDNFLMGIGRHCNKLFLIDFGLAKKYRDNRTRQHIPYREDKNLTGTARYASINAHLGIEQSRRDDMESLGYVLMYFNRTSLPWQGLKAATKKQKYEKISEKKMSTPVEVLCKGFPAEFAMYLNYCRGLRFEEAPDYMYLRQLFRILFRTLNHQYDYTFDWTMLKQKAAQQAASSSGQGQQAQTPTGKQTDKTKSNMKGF
# UniProt P35030, sequence (whole entry, looked up): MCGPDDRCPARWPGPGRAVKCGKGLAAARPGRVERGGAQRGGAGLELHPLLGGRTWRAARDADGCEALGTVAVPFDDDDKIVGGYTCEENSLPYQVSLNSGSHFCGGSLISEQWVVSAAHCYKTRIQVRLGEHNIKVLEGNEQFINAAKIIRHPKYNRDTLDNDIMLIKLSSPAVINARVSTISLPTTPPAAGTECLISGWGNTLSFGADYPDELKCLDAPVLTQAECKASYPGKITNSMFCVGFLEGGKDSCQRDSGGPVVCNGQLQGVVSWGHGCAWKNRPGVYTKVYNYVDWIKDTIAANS
# UniProt Q96SW2, sequence (whole entry, looked up): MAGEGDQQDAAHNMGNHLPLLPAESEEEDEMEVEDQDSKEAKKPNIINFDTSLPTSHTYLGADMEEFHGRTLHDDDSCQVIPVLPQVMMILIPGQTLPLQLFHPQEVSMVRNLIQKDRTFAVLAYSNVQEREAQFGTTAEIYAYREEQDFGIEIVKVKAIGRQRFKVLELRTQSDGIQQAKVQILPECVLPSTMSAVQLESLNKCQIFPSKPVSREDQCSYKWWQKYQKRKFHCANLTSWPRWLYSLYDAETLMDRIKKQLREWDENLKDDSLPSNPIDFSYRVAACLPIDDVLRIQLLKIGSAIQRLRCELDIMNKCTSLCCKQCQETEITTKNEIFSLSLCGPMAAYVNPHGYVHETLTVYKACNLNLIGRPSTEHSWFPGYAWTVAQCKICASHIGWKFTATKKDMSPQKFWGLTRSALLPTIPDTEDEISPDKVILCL
# UniProt P43220, sequence (whole entry, unmodified, looked up): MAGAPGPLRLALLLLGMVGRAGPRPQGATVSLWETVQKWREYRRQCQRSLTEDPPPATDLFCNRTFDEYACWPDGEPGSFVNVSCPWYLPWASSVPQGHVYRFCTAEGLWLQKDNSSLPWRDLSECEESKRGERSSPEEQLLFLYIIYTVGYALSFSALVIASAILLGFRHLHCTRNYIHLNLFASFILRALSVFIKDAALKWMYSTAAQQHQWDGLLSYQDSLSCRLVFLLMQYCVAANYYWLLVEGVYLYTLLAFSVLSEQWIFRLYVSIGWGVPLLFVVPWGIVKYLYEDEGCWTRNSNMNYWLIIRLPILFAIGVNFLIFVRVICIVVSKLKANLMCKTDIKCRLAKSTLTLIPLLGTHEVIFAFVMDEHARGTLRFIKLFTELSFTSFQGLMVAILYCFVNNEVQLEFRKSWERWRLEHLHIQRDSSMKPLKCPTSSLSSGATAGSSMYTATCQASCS
# UniProt Q8WTQ7, sequence (whole entry, looked up): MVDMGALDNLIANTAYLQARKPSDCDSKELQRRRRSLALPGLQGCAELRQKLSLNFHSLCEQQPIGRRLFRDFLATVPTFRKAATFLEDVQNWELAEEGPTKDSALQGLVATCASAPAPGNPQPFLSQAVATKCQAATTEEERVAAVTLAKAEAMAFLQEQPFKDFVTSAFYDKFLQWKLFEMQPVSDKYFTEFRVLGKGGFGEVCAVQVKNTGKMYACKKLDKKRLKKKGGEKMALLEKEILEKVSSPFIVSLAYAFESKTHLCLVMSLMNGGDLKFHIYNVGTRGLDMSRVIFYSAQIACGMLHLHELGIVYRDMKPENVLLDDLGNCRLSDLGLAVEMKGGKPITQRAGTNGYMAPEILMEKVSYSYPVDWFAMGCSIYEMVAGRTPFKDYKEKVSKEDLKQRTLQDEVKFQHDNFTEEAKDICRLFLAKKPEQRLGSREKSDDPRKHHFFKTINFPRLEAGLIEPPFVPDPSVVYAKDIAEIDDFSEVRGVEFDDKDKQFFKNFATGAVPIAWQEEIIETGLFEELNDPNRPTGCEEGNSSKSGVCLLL
# UniProt Q13526, sequence (whole entry, looked up): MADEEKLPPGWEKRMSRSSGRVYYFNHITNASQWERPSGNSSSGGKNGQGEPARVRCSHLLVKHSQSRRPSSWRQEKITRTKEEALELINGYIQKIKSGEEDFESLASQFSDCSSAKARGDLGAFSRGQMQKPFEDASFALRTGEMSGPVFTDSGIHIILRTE
# UniProt P48730, sequence (whole entry, looked up): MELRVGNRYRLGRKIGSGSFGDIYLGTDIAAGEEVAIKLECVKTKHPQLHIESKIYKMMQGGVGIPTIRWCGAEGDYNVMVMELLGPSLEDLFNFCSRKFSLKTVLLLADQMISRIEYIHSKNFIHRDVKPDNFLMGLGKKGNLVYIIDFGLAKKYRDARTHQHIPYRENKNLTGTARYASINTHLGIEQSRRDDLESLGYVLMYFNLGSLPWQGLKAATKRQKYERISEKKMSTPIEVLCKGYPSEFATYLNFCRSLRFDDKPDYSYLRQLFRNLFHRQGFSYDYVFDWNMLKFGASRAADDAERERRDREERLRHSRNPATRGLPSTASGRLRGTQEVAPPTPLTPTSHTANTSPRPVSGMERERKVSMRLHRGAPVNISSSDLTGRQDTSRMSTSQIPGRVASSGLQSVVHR
Compound,target or system,test,test system,setting,how to read,measurement,result
COC1CN([C@H]2CC[C@H]([C@@]3(C)Oc4c(Cl)cc(C(=O)NCc5c(SC)cc(C)[nH]c5=O)c(C)c4O3)CC2)C1,,"RNA-seq, refers to: SH3D19 mouse homolog","mouse, HT-1376 xenograft, whole blood",dose not given,reference: vehicle,log2 fold change,0.276
CN(Cc1nn(C)c2nc(N)[nH]c(=O)c2c1=O)c1nnn[nH]1,folP,"binding, SPR",,,,Kd,0.00153 µM
Cc1ncsc1-c1ccc(C(C)NC(=O)C2CC(O)CN2C(=O)C(NC(=O)CCCCCCCCCCN2CCCC(Nc3ncc(Cl)c(Nc4ccccc4S(=O)(=O)C(C)C)n3)C2)C(C)(C)C)cc1 (stereo not shown),22Rv1,"RNA-seq, refers to: STC2 mRNA",,concentration not given,reference: DMSO,log2 fold change,-1.29
CCc1nc2cc3ccccc3cc2cc1C(=O)N1CCC[C@H]1C(=O)N[C@@H](CCC/C=C/CCC[C@H](NC(=O)[C@@H]1CCCN1C(=O)c1cc2cc3ccccc3cc2nc1CC)C(=O)N[C@@H](CCCCN)C(=O)NCCCN)C(=O)N[C@@H](CCCCN)C(=O)NCCCN,(CAG)10 RNA,SPR,,,,Kd,0.846 µM
Cc1c[nH]c2nccc(-c3ccc(C(=O)N[C@@H]4c5c(F)cc(C(F)F)cc5C[C@@H]4O)cn3)c12,"GRK7 (Homo sapiens, UniProt Q8WTQ7)","binding, competition with immobilised ligand",,,,Kd,0.385 µM
Cn1nc(CNc2nnn[nH]2)c(=O)c2c(=O)[nH]c(N)nc21,folP,"binding, SPR",,,,Kd,0.00323 µM
CCc1c(C(=O)Nc2ccc3c(c2)CN(C2CCC(=O)NC2=O)C3=O)[nH]c2c(NC(C)=O)cccc12 (stereo not shown),CSNK1A1/CRBN,"protein level, degrader, luciferase",,,,DC50,0.0397 µM
Cc1nc(-c2c[nH]c(C(=O)Nc3ncccc3O)c2)cs1,"Trypsin-3 (Homo sapiens, UniProt P35030)","enzyme activity, inhibitor, absorbance",,,,Ki,47 µM and 46.9 µM
NC(=O)[C@H](Cc1c[nH]c2ccccc12)NC(=O)[C@@H]1CCCCN1C(=O)[C@H](Cc1c[nH]c2cc(Cl)ccc12)NC(=O)CCl,"PIN1 (Homo sapiens, UniProt Q13526)","protein degradation, degrader",human cancer cell lines,24 h,,DC50,~0.5 µM
COc1cc(C2C(NC(=O)c3ccc(NC(=O)OC(C)(C)C)cc3)(C(=O)O)C(c3ccc(OC(=O)c4cccs4)c(OC)c3)C2(NC(=O)c2ccc(NC(=O)OC(C)(C)C)cc2)C(=O)O)ccc1OC(=O)c1cccs1 (stereo not shown),"GLP1R (Homo sapiens, UniProt P43220, Q140A)","cAMP, agonist",,,,EC50,0.0282 µM
C=CC(=O)Nc1cccc(Cn2ncc3cnc(Nc4cnn(CCOC)c4)nc32)c1,CDKL2 human,"binding, KINOMEscan",,100 nM,lower = stronger binding,percent of control,69%
Cc1nn(-c2cccc(N)c2)c(=O)c2cnc(Nc3ccc(N4CCNCC4)cc3)nc12,"CSNK1D (Homo sapiens, UniProt P48730)",SelectScreen kinase,,,,IC50,> 10 µM
CCc1c(C(=O)Nc2ccc3c(c2)CN(C2CCC(=O)NC2=O)C3=O)[nH]c2c(CNC(C)=O)cccc12 (stereo not shown),CSNK1A1/CRBN,"protein level, degrader, luciferase",,,,DC50,0.0095 µM

# A few entries again:
Compound,target or system,test,test system,setting,how to read,measurement,result
Cc1c[nH]c2nccc(-c3ccc(C(=O)N[C@@H]4c5c(F)cc(C(F)F)cc5C[C@@H]4O)cn3)c12,"GRK7 (Homo sapiens, UniProt Q8WTQ7)","binding, competition with immobilised ligand",,,,Kd,0.385 µM
Cn1nc(CNc2nnn[nH]2)c(=O)c2c(=O)[nH]c(N)nc21,folP,"binding, SPR",,,,Kd,0.00323 µM
